{"data": "Published values gathered from unrelated publications", "B1": "RSPO4/IgG1 Fc RSPO4 32-137 Q65R/N297Q; CPT2 conjugated via azide click; chain GGNCTGCIICSEENGCSTCQQRLFLFIRREGIRRYGKCLHDCPPGYFGIRGQEVNRCKKCGATCESCFSQDFCIRCKRQFYLYKGKCLPTCPPGTLAHQNTRECQGGGGGSGGGGSGGGGS", "B2": "TIMP2 27-153 (Homo sapiens, UniProt P16035); sequence looked up; chain CSCSPVHPQQAFCNADVVIRAKAVSEKEVDSGNDIYGNPIKRIQYEIKQIKMFKGPEKDIEFIYTAPSSAVCGVSLDVGGKKEYLIAGKAEGDGKMHITLCDFIVPWDTLSTTQKKSLNHRYQMGCE", "B3": "CTNNB1 (Homo sapiens, UniProt P35222); sequence looked up; chain MATQADLMELDMAMEPDRKAAVSHWQQQSYLDSGIHSGATTTAPSLSGKGNPEEEDVDTSQVLYEWEQGFSQSFTQEQVADIDGQYAMTRAQRVRAAMFPETLDEGMQIPSTQFDAAHPTNVQRLAEPSQMLKHAVVNLINYQDDAELATRAIPELTKLLNDEDQVVVNKAAVMVHQLSKKEASRHAIMRSPQMVSAIVRTMQNTNDVETARCTAGTLHNLSHHREGLLAIFKSGGIPALVKMLGSPVDSVLFYAITTLHNLLLHQEGAKMAVRLAGGLQKMVALLNKTNVKFLAITTDCLQILAYGNQESKLIILASGGPQALVNIMRTYTYEKLLWTTSRVLKVLSVCSSNKPAIVEAGGMQALGLHLTDPSQRLVQNCLWTLRNLSDAATKQEGMEGLLGTLVQLLGSDDINVVTCAAGILSNLTCNNYKNKMMVCQVGGIEALVRTVLRAGDREDITEPAICALRHLTSRHQEAEMAQNAVRLHYGLPVVVKLLHPPSHWPLIKATVGLIRNLALCPANHAPLREQGAIPRLVQLLVRAHQDTQRRTSMGGTQQQFVEGVRMEEIVEGCTGALHILARDVHNRIVIRGLNTIPLFVQLLYSPIENIQRVAAGVLCELAQDKEAAEAIEAEGATAPLTELLHSRNEGVATYAAAVLFRMSEDKPQDYKKRLSVELTSSLFRTEPMAWNETADLGLDIGAQGEPLGYRQDDPSYRSFHSGGYGQDALGMDPMMEHEMGGHHPGADYPVDGLPDLGHAQDLMDGLPPGDSNQLAWFDTDL", "B4": "PI4KB E667K (Homo sapiens, UniProt Q9UBF8-2); sequence looked up; chain MGDTVVEPAPLKPTSEPTSGPPGNNGGSLLSVITEGVGELSVIDPEVAQKACQEVLEKVKLLHGGVAVSSRGTPLELVNGDGVDSEIRCLDDPPAQIREEEDEMGAAVASGTAKGARRRRQNNSAKQSWLLRLFESKLFDISMAISYLYNSKEPGVQAYIGNRLFCFRNEDVDFYLPQLLNMYIHMDEDVGDAIKPYIVHRCRQSINFSLQCALLLGAYSSDMHISTQRHSRGTKLRKLILSDELKPAHRKRELPSLSPAPDTGLSPSKRTHQRSKSDATASISLSSNLKRTASNPKVENEDEPVRLAPEREFIKSLMAIGKRLATLPTKEQKTQRLISELSLLNHKLPARVWLPTAGFDHHVVRVPHTQAVVLNSKDKAPYLIYVEVLECENFDTTSVPARIPENRIRSTRSVENLPECGITHEQRAGSFSTVPNYDNDDEAWSVDDIGELQVELPEVHTNSCDNISQFSVDSITSQESKEPVFIAAGDIRRRLSEQLAHTPTAFKRDPEDPSAVALKEPWQEKVRRIREGSPYGHLPNWRLLSVIVKCGDDLRQELLAFQVLKQLQSIWEQERVPLWIKPYKILVISADSGMIEPVVNAVSIHQVKKQSQLSLLDYFLQEHGSYTTEAFLSAQRNFVQSCAGYCLVCYLLQVKDRHNGNILLDAKGHIIHIDFGFILSSSPRNLGFETSAFKLTTEFVDVMGGLDGDMFNYYKMLMLQGLIAARKHMDKVVQIVEIMQQGSQLPCFHGSSTIRNLKERFHMSMTEEQLQLLVEQMVDGSMRSITTKLYDGFQYLTNGIM", "note": "Numbers after ± are the reported error.", "chain of UniProt Q9NQB0 (whole entry, looked up)": "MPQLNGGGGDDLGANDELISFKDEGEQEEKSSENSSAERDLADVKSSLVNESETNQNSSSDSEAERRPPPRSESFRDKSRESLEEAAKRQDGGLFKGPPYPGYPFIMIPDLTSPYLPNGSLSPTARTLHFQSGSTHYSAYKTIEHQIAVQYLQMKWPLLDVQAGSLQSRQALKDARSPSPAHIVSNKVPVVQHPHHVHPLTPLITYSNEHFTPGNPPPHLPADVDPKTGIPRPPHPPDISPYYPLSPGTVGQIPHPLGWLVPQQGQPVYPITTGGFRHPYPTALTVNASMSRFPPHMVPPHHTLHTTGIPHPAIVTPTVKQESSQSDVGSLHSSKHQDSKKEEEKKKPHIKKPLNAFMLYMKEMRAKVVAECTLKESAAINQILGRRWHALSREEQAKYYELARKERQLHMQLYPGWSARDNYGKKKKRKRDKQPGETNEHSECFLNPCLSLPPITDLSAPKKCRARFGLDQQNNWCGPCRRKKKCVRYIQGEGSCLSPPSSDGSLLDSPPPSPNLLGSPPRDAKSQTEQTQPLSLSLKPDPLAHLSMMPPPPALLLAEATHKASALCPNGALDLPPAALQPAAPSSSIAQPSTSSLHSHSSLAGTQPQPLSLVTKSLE", "chain of UniProt P09119 (whole entry, looked up)": "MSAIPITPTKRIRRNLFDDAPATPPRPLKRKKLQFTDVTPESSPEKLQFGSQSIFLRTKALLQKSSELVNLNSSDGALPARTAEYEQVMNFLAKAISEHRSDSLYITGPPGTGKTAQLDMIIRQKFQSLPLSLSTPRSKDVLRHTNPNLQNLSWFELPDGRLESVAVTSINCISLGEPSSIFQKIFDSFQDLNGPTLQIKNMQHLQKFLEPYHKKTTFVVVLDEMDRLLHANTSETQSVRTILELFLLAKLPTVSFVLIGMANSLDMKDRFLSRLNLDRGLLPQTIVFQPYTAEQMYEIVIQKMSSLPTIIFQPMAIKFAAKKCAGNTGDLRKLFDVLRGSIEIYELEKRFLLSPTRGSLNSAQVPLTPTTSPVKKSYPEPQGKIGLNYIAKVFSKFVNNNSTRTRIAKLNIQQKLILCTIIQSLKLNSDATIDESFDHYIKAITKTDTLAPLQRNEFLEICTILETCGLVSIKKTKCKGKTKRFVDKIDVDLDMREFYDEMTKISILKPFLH", "chain of UniProt Q03012 (whole entry, unmodified, looked up)": "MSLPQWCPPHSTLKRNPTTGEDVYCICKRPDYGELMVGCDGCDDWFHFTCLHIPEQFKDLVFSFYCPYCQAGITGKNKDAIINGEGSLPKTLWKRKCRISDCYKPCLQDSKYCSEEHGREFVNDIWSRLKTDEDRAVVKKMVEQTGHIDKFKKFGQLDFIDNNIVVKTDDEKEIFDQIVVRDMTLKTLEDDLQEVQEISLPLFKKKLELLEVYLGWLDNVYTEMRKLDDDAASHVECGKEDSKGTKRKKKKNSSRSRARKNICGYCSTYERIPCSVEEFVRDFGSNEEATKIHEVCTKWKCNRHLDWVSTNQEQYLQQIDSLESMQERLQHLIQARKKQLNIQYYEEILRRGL", "chain of UniProt P62491 (whole entry, looked up)": "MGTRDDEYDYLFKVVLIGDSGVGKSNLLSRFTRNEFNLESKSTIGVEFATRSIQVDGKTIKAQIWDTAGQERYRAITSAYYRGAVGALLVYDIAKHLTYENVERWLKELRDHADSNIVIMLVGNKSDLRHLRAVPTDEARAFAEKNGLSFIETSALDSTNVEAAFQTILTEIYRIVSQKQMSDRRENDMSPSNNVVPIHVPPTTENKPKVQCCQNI", "chain of UniProt P24279 (whole entry, looked up)": "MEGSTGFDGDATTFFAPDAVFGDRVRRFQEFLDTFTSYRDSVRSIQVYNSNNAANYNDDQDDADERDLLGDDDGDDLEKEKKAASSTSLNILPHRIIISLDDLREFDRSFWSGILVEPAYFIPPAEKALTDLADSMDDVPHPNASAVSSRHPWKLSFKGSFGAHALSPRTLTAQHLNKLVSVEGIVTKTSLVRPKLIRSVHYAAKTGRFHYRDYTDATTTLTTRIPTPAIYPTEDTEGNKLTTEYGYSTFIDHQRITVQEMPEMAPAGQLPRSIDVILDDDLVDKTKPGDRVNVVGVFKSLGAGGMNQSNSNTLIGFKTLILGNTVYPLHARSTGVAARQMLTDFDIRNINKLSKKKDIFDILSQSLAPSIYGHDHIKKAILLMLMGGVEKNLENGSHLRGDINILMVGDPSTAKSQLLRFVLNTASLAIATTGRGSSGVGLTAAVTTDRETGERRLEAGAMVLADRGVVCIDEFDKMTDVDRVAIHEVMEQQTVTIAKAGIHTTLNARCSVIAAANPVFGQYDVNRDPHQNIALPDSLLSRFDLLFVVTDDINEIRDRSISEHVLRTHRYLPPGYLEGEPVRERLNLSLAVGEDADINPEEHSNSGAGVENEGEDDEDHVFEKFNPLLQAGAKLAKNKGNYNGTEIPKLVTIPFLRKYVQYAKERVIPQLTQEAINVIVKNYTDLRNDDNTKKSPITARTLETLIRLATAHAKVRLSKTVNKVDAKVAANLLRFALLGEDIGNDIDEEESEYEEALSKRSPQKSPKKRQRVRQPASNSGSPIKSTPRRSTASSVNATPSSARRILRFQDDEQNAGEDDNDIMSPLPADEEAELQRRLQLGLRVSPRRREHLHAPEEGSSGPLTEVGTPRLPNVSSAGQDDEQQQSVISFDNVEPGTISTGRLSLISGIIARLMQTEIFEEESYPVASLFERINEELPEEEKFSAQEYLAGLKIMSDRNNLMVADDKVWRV", "chain of UniProt O14907 (whole entry, looked up)": "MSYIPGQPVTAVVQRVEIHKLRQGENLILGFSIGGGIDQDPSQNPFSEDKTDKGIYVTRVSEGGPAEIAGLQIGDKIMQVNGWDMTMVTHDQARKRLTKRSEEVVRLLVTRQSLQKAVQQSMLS"}
{"Substance": "GSGAGKETYY", "target or system": "human MAGI1-3/6 PDZ construct (MBP fusion)", "test": "automated holdup", "test system": "peptide, crude extract", "conditions": "concentration not given, uncorrected, unit not given", "how to read": "baseline: biotin control resin, higher = stronger binding", "quantity": "binding intensity", "value": -0.0493}
{"Substance": "FGA (Homo sapiens, UniProt P02671)", "target or system": "ME1 (Homo sapiens, UniProt P48163)", "test": "cross-linking MS", "conditions": "with: DSSO", "quantity": "cross-linked residues", "value": "K238 to K525"}
{"Substance": "CDC6 (Saccharomyces cerevisiae, UniProt P09119)", "target or system": "MCM3 (Saccharomyces cerevisiae, UniProt P24279)", "test": "cross-linking MS", "conditions": "hits only", "quantity": "interaction screen", "value": "cross-linked"}
{"Substance": "SPP1 (Saccharomyces cerevisiae, UniProt Q03012)", "target or system": "REC107 V195D (Saccharomyces cerevisiae, UniProt P21651)", "test": "single-molecule force spectroscopy", "conditions": "loading rate 1 µm/s", "quantity": "rupture force", "value": "82.4 pN"}
{"Substance": "GLGQWISGA", "target or system": "Jurkat T cells expressing 1G4 TCR", "test": "NFAT-eGFP reporter, fluorescence microscopy", "test system": "peptide", "conditions": "concentration not given, HLA-A*02:01 NY-ESO system", "quantity": "reporter activation", "value": "0.0044%"}
{"Substance": "MYO1B (Homo sapiens, UniProt O43795)", "target or system": "FGA (Homo sapiens, UniProt P02671)", "test": "cross-linking MS", "conditions": "with: DSSO", "quantity": "cross-linked residues", "value": "K3 to K620"}
{"Substance": "B1", "target or system": "LGR6 (Homo sapiens, UniProt Q9HBX8)", "test": "cell viability", "test system": "Fc fusion, 293T-LGR6", "conditions": "5 days", "quantity": "cytotoxic IC50", "value": "0.3 nM"}
{"Substance": "B2 (TIMP2 27-153)", "target or system": "MMP14 110-300 (Homo sapiens, UniProt P50281)", "test": "MMP-14 cleavage of fluorogenic substrate, inhibitor, steady-state kinetics", "quantity": "Ki", "value": "0.53 nM"}
{"Substance": "GSGAGKETEC", "target or system": "human MAGI1-2/6 PDZ construct (MBP fusion)", "test": "automated holdup", "test system": "peptide, crude extract", "conditions": "concentration not given, corrected by standard peak, unit not given", "how to read": "baseline: biotin control resin, higher = stronger binding", "quantity": "binding intensity", "value": -0.0972}
{"Substance": "FGB (Homo sapiens, UniProt P02675)", "target or system": "RRP15 (Homo sapiens, UniProt Q9Y3B9)", "test": "cross-linking MS", "conditions": "with: DSSO", "quantity": "cross-linked residues", "value": "K163 to K126"}
{"Substance": "ANDELISF (TCF7L2 14-21 (UniProt Q9NQB0); N-terminal acetyl; sequence looked up)", "target or system": "CTNNB1 135-668 (Homo sapiens, UniProt P35222)", "test": "fluorescence polarisation", "test system": "peptide", "quantity": "Ki", "value": "57400 ± 18000 nM"}
{"Substance": "DLLQWQTKL", "target or system": "Jurkat T cells expressing 1G4 TCR", "test": "NFAT-eGFP reporter, fluorescence microscopy", "test system": "peptide", "conditions": "concentration not given, HLA-A*02:01 NY-ESO system", "quantity": "reporter activation", "value": "0.0447%"}
{"Substance": "B3 (CTNNB1)", "target or system": "TAX1BP3 (Homo sapiens, UniProt O14907)", "test": "FRET", "test system": "A549", "conditions": "in cells", "how to read": "baseline: donor-only bleed-through ratio, higher = more interaction", "quantity": "FRET fold increase", "value": "1.5 fold"}
{"Substance": "ALB (Homo sapiens, UniProt P02768)", "target or system": "EMC2 (Homo sapiens, UniProt Q15006)", "test": "cross-linking MS", "conditions": "with: DSSO", "quantity": "cross-linked residues", "value": "K161 to K136"}
{"Substance": "B4 (PI4KB E667K)", "target or system": "RAB11A (Homo sapiens, UniProt P62491)", "test": "co-IP", "test system": "HEK-293T", "how to read": "baseline: wild type, higher = more binding", "quantity": "relative binding", "value": "2.7 fold"}
{"Substance": "PALLD Ig3-Ig4 tandem del6 linker residues", "target or system": "ACTA1 F-actin (Oryctolagus cuniculus, UniProt P68135)", "test": "low-speed co-sedimentation", "conditions": "5 µM", "quantity": "bundled F-actin fraction", "value": "86.5%"}
